{"sequences": {"note": "The chains behind the UniProt entries cited, without tags or fusion partners.", "UniProt P10635, whole entry": "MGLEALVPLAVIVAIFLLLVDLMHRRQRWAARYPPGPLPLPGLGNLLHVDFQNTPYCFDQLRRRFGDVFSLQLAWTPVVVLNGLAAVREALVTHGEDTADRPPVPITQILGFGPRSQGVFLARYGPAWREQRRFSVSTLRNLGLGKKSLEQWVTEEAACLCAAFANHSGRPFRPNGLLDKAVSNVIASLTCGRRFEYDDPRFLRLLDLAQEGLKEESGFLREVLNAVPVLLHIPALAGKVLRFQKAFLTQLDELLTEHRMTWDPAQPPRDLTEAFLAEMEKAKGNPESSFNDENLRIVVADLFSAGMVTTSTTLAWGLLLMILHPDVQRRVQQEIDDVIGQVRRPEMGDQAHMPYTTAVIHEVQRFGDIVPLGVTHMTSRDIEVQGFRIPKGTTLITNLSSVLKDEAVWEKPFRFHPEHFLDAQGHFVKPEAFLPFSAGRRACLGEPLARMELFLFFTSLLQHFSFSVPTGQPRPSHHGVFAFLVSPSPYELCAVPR", "UniProt P28223, whole entry": "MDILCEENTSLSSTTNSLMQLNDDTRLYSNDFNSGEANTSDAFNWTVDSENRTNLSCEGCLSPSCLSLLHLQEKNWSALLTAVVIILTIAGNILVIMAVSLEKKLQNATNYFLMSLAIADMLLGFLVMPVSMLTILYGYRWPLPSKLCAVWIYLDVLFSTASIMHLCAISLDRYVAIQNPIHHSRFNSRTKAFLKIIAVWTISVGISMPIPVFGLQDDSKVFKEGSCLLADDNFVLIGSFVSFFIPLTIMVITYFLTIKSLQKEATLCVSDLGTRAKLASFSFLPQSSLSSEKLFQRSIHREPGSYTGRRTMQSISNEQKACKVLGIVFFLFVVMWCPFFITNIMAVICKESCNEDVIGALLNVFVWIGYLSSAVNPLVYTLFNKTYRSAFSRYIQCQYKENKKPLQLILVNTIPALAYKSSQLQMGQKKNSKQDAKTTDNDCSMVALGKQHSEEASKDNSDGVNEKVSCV", "UniProt Q00959, whole entry, looked up": "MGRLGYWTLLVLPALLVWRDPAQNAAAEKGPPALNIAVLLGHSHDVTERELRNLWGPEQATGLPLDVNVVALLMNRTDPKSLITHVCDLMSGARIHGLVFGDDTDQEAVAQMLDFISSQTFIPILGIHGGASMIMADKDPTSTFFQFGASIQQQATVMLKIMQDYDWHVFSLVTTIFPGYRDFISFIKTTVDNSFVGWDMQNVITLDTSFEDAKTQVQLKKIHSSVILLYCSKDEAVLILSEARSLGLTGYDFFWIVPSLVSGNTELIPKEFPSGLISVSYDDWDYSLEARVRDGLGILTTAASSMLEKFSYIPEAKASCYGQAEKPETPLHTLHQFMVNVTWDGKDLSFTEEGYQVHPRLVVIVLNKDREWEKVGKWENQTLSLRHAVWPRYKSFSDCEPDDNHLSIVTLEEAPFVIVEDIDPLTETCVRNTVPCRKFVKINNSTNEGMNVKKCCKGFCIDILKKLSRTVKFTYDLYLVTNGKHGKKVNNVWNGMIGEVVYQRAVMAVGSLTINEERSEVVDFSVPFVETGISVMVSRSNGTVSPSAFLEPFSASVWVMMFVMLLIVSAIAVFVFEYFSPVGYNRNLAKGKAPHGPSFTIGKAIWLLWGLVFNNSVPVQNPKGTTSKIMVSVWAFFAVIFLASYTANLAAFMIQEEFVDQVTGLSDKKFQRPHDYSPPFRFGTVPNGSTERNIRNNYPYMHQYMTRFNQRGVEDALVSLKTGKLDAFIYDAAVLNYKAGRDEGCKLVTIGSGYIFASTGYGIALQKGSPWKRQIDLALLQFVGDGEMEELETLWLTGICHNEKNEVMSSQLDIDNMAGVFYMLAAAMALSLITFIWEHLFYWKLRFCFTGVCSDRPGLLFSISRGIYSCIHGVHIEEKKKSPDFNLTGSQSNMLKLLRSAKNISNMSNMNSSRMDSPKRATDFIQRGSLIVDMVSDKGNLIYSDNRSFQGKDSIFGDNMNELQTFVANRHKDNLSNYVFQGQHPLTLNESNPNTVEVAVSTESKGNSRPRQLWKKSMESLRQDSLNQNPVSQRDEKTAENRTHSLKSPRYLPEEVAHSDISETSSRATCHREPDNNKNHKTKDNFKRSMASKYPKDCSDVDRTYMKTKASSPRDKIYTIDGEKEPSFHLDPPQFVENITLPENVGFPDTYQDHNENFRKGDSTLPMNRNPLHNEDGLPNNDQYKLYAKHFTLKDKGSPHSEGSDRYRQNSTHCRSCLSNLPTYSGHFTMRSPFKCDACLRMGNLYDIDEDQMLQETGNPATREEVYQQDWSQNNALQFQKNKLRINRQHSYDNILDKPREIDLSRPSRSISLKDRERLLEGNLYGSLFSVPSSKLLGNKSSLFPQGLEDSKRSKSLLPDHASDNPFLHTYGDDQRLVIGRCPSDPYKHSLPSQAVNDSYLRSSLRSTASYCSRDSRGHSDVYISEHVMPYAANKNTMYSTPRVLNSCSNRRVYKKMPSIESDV", "UniProt P35372, whole entry": "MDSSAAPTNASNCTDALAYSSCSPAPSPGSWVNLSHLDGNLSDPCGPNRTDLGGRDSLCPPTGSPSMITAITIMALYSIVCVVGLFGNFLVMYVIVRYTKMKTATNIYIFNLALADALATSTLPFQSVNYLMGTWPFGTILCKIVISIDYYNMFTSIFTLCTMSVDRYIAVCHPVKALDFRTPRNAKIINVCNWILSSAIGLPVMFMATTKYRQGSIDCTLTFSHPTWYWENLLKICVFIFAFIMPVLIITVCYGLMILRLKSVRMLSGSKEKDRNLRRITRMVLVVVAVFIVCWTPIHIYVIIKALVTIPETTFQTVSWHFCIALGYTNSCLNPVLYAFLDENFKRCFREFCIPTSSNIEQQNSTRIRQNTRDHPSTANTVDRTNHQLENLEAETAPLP"}, "data": "Experimental data from different studies", "note": "Compare with care: the assays were run in different laboratories. ± gives the spread as reported."}
{"Compound": "CC[C@H](C)[C@@H]1NC(=O)[C@H](CCC(=O)O)NC(=O)[C@@H]2CCCN2C(=O)[C@H](Cc2c[nH]cn2)NC(=O)[C@H](CC(=O)O)NC(=O)[C@H](Cc2ccc(O)cc2)NC(=O)[C@H](CC(N)=O)NC(=O)[C@@H]2CSSC[C@@H]3NC(=O)CNC(=O)CNC(=O)CNC(=O)[C@H](C)NC(=O)[C@H](C)NC(=O)CNC(=O)CNC(=O)[C@H](CSSC[C@H](NC3=O)C(=O)N[C@@H](CO)C(=O)N[C@@H](CC(=O)O)C(=O)N3CCC[C@H]3C(=O)N[C@@H](CCCNC(=N)N)C(=O)N2)NC1=O", "test": "barium current, inhibitor, electrophysiology", "conditions": "0.2 µM, Cav2.3d Y1761F mutant", "quantity": "inhibition", "value": "1.7 ± 0.3%"}
{"Compound": "C[C@H]1COc2c(N3CCN(C)CC3)c(F)cc3c(=O)c(C(=O)O)cn1c23", "target or system": "Staphylococcus aureus topoisomerase IV GrlA S81F", "quantity": "concentration of maximal DNA cleavage", "value": "300 µM"}
{"Compound": "CO[C@]12CC[C@@]3(C[C@@H]1C(C)(C)O)[C@H]1Cc4ccc(O)c5c4[C@@]3(CCN1CC1CC1)[C@H]2O5", "target or system": "Cytochrome P450 2D6 (CYP2D6, Homo sapiens, UniProt P10635)", "test system": "human liver microsomes", "conditions": "10 µM", "quantity": "inhibition", "value": "59.9%"}
{"Compound": "CCCCCCC1c2ccc(O)cc2Oc2cc(O)ccc21", "target or system": "Acinetobacter baumannii", "test system": "ATCC 9955", "conditions": "no additive", "quantity": "MIC", "value": "> 373 µg/mL"}
{"Compound": "O=c1ccc2nc3ccc(OCC4CCOCC4)cc3oc-2c1", "target or system": "Mycobacterium tuberculosis", "test system": "mc2 6206 PA-824-resistant ddn mutant", "conditions": "7 days", "quantity": "MIC90", "value": "> 256 µM"}
{"Compound": "O=C(Nc1ccccc1)c1cc([N+](=O)[O-])ccc1Cl", "test": "LC-MS/MS", "test system": "Sprague-Dawley rat, male, plasma", "conditions": "intravenous, 2.5 mg/kg", "quantity": "AUC(0-inf)", "value": "49 ng·h/mL"}
{"Compound": "O=c1ccc2nc3ccc(OC4CCCC4)cc3oc-2c1", "target or system": "Mycobacterium tuberculosis", "test system": "mc2 6206 clofazimine-resistant fbiC mutant", "conditions": "7 days", "quantity": "MIC90", "value": "9.9 µM"}
{"Compound": "CCCN1CCN(c2ccc3c(c2)C2CC3CCN2C(=O)OCc2ccccc2)CC1 (centres unmarked)", "target or system": "HTR2A (Homo sapiens, UniProt P28223)", "test": "binding, radioligand binding", "quantity": "Ki", "value": "1270 nM"}
{"Compound": "C(CCCCCN1COOC2(CCCCCC2)OOC2(CCCCCC2)OOC1)CCCCN1COOC2(CCCCCC2)OOC2(CCCCCC2)OOC1", "target or system": "Jurkat", "test": "annexin V/7-AAD", "conditions": "3.0 µM, 24 h", "quantity": "early apoptotic cells", "value": "32.9%"}
{"Compound": "C[C@H](Cc1ccc(O)c(O)c1)[C@@H](C)Cc1ccc(O)c(O)c1", "test system": "PBS", "conditions": "24 h, room temperature", "quantity": "solubility", "value": "50 µg/mL"}
{"Compound": "CCCCOc1ccc2nc3ccc(=O)cc-3oc2c1", "target or system": "Mycobacterium tuberculosis", "test system": "mc2 6206 PA-824-resistant ddn mutant", "conditions": "7 days", "quantity": "MIC90", "value": "4.8 µM"}
{"Compound": "CCc1nc(N)nc(N)c1C#CCc1cc(OC)c(OC)c(-c2ccncc2)c1", "target or system": "Staphylococcus aureus", "test system": "MRSA isolate UCH 121", "quantity": "MIC", "value": "0.625 µg/mL"}
{"Compound": "COc1cc(OC)c2ccccc2c1C=C1C(=O)NC(=S)NC1=O", "target or system": "Ly19, SU-DHL-8, TMD8", "conditions": "4 µM, 24 h", "quantity": "reduced glutathione level", "value": "decreased"}
{"Compound": "COc1ccc(OC[C@H]2c3cccn3CC(=O)N2Cc2cccc(F)c2)cc1", "target or system": "Glutamate receptor ionotropic, NMDA 2A, with GluN1 (Grin2a, Rattus norvegicus, UniProt Q00959)", "test": "ion current, whole-cell patch clamp", "test system": "HEK293T cells, transfected", "conditions": "10 µM, together with: glutamate for 10 ms", "scale": "relative to: baseline", "quantity": "charge transfer", "value": "1.9 ± 0.7 fold"}
{"Compound": "O=c1ccc2nc3ccc(OCC(O)C(F)(F)F)cc3oc-2c1 (centres unmarked)", "target or system": "Mycobacterium tuberculosis", "test system": "mc2 6206 PA-824-resistant ddn mutant", "conditions": "7 days", "quantity": "MIC90", "value": "> 512 µM"}
{"Compound": "CC#C/C(=N\\OC[C@H]1COCCN1)c1ccc2ncnc(Nc3ccc(OCc4cccc(F)c4)c(Cl)c3)c2c1", "test": "tumour growth", "test system": "HT115, SCID mouse subcutaneous xenograft", "conditions": "oral, 21 days daily", "quantity": "ED50", "value": "< 25 mg/kg"}
{"Compound": "CSc1nc(Cl)cc(Sc2nnc(-c3cc(C(F)(F)F)cc(C(F)(F)F)c3)[nH]2)n1", "target or system": "Escherichia coli", "test system": "NR698", "conditions": "37 °C, without PMBN", "quantity": "MIC", "value": "2.2 µg/mL"}
{"Compound": "CC[C@](O)([C@H]1C[C@@]23C=C[C@]1(OC)[C@@H]1Oc4c(O)ccc5c4[C@@]12CCN(CC1CC1)[C@@H]3C5)C(C)(C)C", "target or system": "OPRM1 (Homo sapiens, UniProt P35372)", "test": "binding, radioligand displacement", "test system": "CHO", "conditions": "together with: [3H]DAMGO", "quantity": "Ki", "value": "4.2 ± 0.6 nM"}
{"Compound": "CCN1CCN(Cc2ccc(NC(=O)c3ccc(C)c(/C=C/c4cnc5[nH]ccc5c4OC)c3)cc2C(F)(F)F)CC1", "target or system": "human PRKY", "test": "kinase-CDC37 interaction, inhibitor", "test system": "human cells", "conditions": "5 µM", "scale": "relative to: vehicle", "quantity": "log2 fold change", "value": 0.599}
{"Compound": "CCN(CC)C(=O)Oc1ccc(C(=O)Nc2cccc3cc[nH]c23)cc1", "test": "NMDA receptor EPSC, inhibitor, whole-cell patch clamp", "test system": "CA1 interneurons, mouse, hippocampal slices", "conditions": "10 µM", "scale": "relative to: control", "quantity": "peak amplitude", "value": "59 ± 9.9%"}
{"Compound": "COCCOc1ccc2nc3ccc(=O)c(Br)c-3oc2c1", "target or system": "Mycobacterium tuberculosis", "test system": "mc2 6206 bedaquiline-resistant MmpL5 regulator mutant", "conditions": "7 days", "quantity": "MIC90", "value": "35 µM"}
{"Compound": "CCCCCCCCCCCCCC(=S)NCCCC[C@H](NC(=O)OCc1ccccc1)C(=O)Nc1cccc(O)c1", "target or system": "HCT-116 pCDH overexpressing", "test": "anchorage-independent growth", "quantity": "GI50", "value": "12100 ± 500 nM"}
{"Compound": "Oc1ccc(C2NCCc3c2[nH]c2ccc(Cl)cc32)cc1O (centres unmarked)", "target or system": "dengue virus 4", "test": "viral replication, plaque reduction", "test system": "BHK-21, TVP360", "quantity": "IC50", "value": "< 1000 nM"}
{"Compound": "O=c1ccc2nc3ccc(OCC4CCCOC4)cc3oc-2c1 (centres unmarked)", "target or system": "Mycobacterium tuberculosis", "test system": "mc2 6206 PA-824-resistant ddn mutant", "conditions": "7 days", "quantity": "MIC90", "value": "69 µM"}
{"Compound": "O=C1C=C(NCCc2cc(Br)c(O)c(Br)c2)C(=O)c2ncccc21", "test system": "BALB/c mice, K7M2 lung metastasis", "conditions": "ip, 0.226 mg/kg/day, 5 days per week", "scale": "up to", "quantity": "survival time", "value": "≤ 49 days"}
{"Compound": "CCOc1ccc2cc(-c3nn(CC4CCN(C)CC4)c4ncnc(N)c34)ccc2n1", "target or system": "other kinases in panel", "test": "kinase activity, inhibitor", "quantity": "IC50", "value": "> 10000 nM"}
